Measured values pooled from the literature.
Lines come from different studies, so protocols differ. Several values in a cell are separate wells, animals, samples, runs or records. Numbers after ± are the reported error.
Glutamate receptor 2: Glutamate receptor 2 (Homo sapiens, UniProt P42262)
Genome polyprotein NS3 helicase domain: Genome polyprotein, NS3 helicase domain (Hepatitis C virus genotype 1b, UniProt Q9WMX2)
Chain of UniProt O76090 (whole entry, unmodified, looked up): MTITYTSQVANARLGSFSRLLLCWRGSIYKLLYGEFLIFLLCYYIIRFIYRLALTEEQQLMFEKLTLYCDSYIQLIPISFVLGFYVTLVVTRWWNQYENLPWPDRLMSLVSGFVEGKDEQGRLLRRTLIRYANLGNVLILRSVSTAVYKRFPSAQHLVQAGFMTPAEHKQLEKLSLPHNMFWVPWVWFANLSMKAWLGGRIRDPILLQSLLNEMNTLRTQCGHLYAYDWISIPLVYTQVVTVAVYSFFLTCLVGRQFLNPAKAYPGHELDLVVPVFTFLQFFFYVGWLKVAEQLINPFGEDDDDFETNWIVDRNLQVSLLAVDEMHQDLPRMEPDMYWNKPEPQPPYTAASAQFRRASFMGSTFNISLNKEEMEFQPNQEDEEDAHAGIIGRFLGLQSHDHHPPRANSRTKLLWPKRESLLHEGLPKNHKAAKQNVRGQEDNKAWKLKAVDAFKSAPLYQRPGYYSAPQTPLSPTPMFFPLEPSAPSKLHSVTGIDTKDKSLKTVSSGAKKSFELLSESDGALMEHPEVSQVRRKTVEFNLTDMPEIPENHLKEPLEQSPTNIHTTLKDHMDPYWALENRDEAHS
Chain of UniProt P51575 (whole entry, unmodified, looked up): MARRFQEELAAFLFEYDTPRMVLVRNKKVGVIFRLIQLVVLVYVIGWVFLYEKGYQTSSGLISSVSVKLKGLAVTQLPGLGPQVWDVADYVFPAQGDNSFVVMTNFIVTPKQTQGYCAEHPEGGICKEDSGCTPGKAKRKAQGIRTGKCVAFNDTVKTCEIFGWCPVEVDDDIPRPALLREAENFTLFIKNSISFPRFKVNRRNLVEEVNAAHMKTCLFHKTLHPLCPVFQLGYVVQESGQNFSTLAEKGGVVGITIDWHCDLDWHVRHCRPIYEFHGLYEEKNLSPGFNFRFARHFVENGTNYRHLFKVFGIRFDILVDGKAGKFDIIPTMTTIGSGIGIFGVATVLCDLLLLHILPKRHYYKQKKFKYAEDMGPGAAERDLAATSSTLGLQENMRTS
Chain of UniProt A4D1P6 (whole entry, looked up): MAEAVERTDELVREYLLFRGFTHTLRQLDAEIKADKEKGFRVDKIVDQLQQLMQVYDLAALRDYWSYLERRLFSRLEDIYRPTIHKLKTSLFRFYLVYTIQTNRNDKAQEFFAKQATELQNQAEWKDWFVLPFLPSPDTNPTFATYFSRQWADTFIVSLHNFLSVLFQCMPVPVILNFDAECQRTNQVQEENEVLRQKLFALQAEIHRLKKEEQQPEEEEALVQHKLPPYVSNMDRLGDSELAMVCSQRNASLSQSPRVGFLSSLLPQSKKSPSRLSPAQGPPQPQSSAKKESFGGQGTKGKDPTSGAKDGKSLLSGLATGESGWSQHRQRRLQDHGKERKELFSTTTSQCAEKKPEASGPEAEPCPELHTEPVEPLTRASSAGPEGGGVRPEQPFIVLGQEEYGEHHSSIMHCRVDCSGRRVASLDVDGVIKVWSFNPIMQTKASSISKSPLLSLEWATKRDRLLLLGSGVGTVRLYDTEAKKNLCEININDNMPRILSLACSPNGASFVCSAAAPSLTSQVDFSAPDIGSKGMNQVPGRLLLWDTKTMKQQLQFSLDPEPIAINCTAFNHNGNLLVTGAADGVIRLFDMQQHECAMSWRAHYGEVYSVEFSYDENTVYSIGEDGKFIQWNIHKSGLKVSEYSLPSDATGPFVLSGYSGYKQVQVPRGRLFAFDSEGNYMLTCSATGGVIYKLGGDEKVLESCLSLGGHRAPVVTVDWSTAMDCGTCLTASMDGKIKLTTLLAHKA
Chain of UniProt P00441 (whole entry, unmodified, looked up): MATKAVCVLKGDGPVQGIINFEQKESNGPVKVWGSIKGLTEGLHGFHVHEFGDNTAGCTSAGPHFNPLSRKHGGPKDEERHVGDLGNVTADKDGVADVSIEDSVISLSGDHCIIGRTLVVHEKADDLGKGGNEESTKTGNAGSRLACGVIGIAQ

CC12CC3CC(C)(C1)CC(N)(C3)C2
activation (Glutamate receptor 2; ion current, agonist, SyncroPatch patch clamp; HEK293; 30 µM): 6%

COC(=O)c1cn(C)c2ccc(-c3cccnc3)cc12
activation (RORC (Homo sapiens, UniProt P51449); reporter gene, Gal4 hybrid reporter; 10 µM; reference: vehicle): 0.76 fold

O=C(COP(=O)(O)O)[C@@H](O)[C@H](O)[C@H](O)COP(=O)(O)O
thermal stability ratio (Crk-like protein (Homo sapiens, UniProt P46109); thermal proteome profiling; HepG2 cell lysate; 57 over 37 °C; reference: compound over control): 0.526

CC(C)(O)c1ccc(-c2nc3cc(NC(=O)c4ccc(-c5ccccc5)cc4)ccc3c(=O)[nH]2)cc1
selectivity ratio (TNKS2 (Homo sapiens, UniProt Q9H2K2); PARylation, inhibitor, biochemical PARylation; reference: TNKS1 IC50 over TNKS2 IC50): 1940

CC[C@H](C)[C@H](NC(=O)[C@H](CCCCN)NC(=O)CNC(=O)[C@@H](NC(=O)[C@@H](NC(=O)[C@H](CCSC)NC(=O)[C@H](Cc1c[nH]cn1)NC(=O)CN)[C@@H](C)O)C(C)C)C(=O)N[C@@H](Cc1ccc(O)cc1)C(=O)N[C@@H](C)C(=O)N[C@@H](C)C(=O)N[C@@H](CCSC)C(=O)N[C@@H](CCSC)C(=O)N[C@H](C(=O)N[C@@H](CCSC)C(=O)N[C@@H](CCC(=O)O)C(=O)N[C@@H](Cc1ccc(O)cc1)C(=O)N[C@@H](C)C(=O)N[C@@H](CCCNC(=N)N)C(=O)N[C@@H](CCC(N)=O)C(=O)N[C@@H](CO)C(=O)N[C@@H](CCCCN)C(=O)N[C@@H](C)C(=O)N[C@@H](CCCCN)C(=O)N[C@@H](CCCCN)C(=O)N[C@@H](CC(C)C)C(=O)N[C@@H](CCC(N)=O)C(=O)N[C@@H](C)C(=O)N[C@@H](CCSC)C(=O)N[C@@H](CCCNC(=N)N)C(=O)O)[C@@H](C)CC
ΔH (Calmodulin-1, Ca2+-bound C-lobe (CALM1, Homo sapiens, UniProt P0DP23); binding, isothermal titration calorimetry; pH 7.4, 15 °C, C-lobe, CaV2.1 IQ domain, together with: Ca2+): -2.48 ± 0.44 kcal/mol

CC(=O)N[C@H]1[C@H]([C@H](O)[C@H](O)CO)OC(C(=O)O)=C[C@@H]1O
inhibition (Genome polyprotein NS3 helicase domain; DNA binding, inhibitor; hepatitis C virus; 100 µM, together with: Cy5-dT15 DNA): 2%

CCCCCCSc1nnc2c(n1)OC(c1ccc(C(=O)O)cc1)Nc1ccccc1-2 (centres unmarked)
EC50 (Voltage-gated potassium channel, KQT; KCNQ2(Kv7.2)/KCNQ3(Kv7.3) (KCNQ3/KCNQ2, Homo sapiens, UniProt O43525+O43526); G(V) shift, activator, two-electrode voltage clamp; Xenopus oocytes; pH 7.4, up to 100 µM, at -17.2 mV): 279 µM

COc1ccc(-c2cc(=O)c3c(O)cc(O[C@@H]4O[C@H](CO)[C@@H](O)[C@H](O)[C@H]4O[C@@H]4O[C@@H](C)[C@H](O)[C@@H](O)[C@H]4O)cc3o2)cc1O
selectivity ratio (Estrogen receptor (ESR1, Homo sapiens, UniProt P03372); array formation; PRL-HeLa; reference: EC50 ERβ over EC50 ERα): 0.0542

Nc1ncnc2c1ncn2[C@@H]1O[C@H](C[C@@H](N)CC[C@H](N)C(=O)O)[C@@H](O)[C@H]1O
binding stoichiometry (O-methyltransferase (Sorghum bicolor, UniProt A0A1B6PFV1); ITC; concentration not given, together with: RSV+): 1.12 ± 0.023

CC(=O)N[C@@H](CC(N)=O)C(=O)N[C@@H](CC(C)C)C(=O)NCC(=O)N[C@@H](CCCCN)C(=O)N[C@@H](Cc1c[nH]cn1)C(=O)N[C@@H](CCC(=O)O)C(=O)N[C@@H](CCCCN)C(=O)N[C@@H](Cc1ccccc1)C(=O)N[C@@H](CO)C(=O)N[C@@H](CCC(=O)O)C(=O)N[C@H](C(=O)N[C@@H](CC(C)C)C(=O)N[C@@H](CCCCN)C(=O)N[C@@H](CCCNC(=N)N)C(=O)N[C@@H](CC(C)C)C(=O)N[C@@H](CCCNC(=N)N)C(=O)N[C@@H](CC(C)C)C(=O)N[C@@H](CCC(N)=O)C(N)=O)C(C)C
binding stoichiometry (Calmodulin-1, N-lobe fragment (CALM1, Homo sapiens, UniProt P0DP23); ITC; concentration not given, N-lobe, together with: 1 mM CaCl2): 0.99

CCCN1C[C@H](CSC)C[C@@H]2c3cccc4[nH]cc(c34)C[C@H]21
activation (Glutamate receptor 2; ion current, agonist, SyncroPatch patch clamp; HEK293; 10 µM): 3%

Nc1ccc(C(=O)O)cc1
current density (BEST1, with wild-type BEST1 (Homo sapiens, UniProt O76090, A243T); whole-cell patch clamp; HEK293 co-expressing WT and A243T mutant; concentration not given, membrane potential 40 mV): 3.71 pA/pF and 3.77 pA/pF and 11.9 pA/pF and 11.3 pA/pF and 11.8 pA/pF and 9.33 pA/pF and 14.6 pA/pF

CC(C)[C@@H]1CC[C@@H](C)C[C@@H]1P(=O)(c1ccccc1)c1ccccc1
inhibition (Genome polyprotein NS3 helicase domain; DNA binding, inhibitor; hepatitis C virus; 100 µM, together with: Cy5-dT15 DNA): 2%

CC1(C)C(/C=C/C=C2/N(CCCc3ccccc3)c3ccc(Cl)cc3C2(C)C)=[N+](CCCc2ccccc2)c2ccc(Cl)cc21.[Br-]
Hill coefficient (PRMT3 (Homo sapiens, UniProt O60678); inhibitor, filter binding; together with: R4 peptide substrate): 6.54

CC[C@H](C)[C@H](NC(=O)[C@H](CCCCN)NC(=O)CNC(=O)[C@@H](NC(=O)[C@@H](NC(=O)[C@H](CCSC)NC(=O)[C@H](Cc1c[nH]cn1)NC(=O)CN)[C@@H](C)O)C(C)C)C(=O)N[C@@H](Cc1ccc(O)cc1)C(=O)N[C@@H](C)C(=O)N[C@@H](C)C(=O)N[C@@H](C)C(=O)N[C@@H](CCSC)C(=O)N[C@H](C(=O)N[C@@H](CCSC)C(=O)N[C@@H](CCC(=O)O)C(=O)N[C@@H](Cc1ccc(O)cc1)C(=O)N[C@@H](Cc1ccc(O)cc1)C(=O)N[C@@H](CCCNC(=N)N)C(=O)N[C@@H](CCC(N)=O)C(=O)N[C@@H](CO)C(=O)N[C@@H](CCCCN)C(=O)N[C@@H](C)C(=O)N[C@@H](CCCCN)C(=O)N[C@@H](CCCCN)C(=O)N[C@@H](CC(C)C)C(=O)N[C@@H](CCC(N)=O)C(=O)N[C@@H](C)C(=O)N[C@@H](CCSC)C(=O)N[C@@H](CCCNC(=N)N)C(=O)O)[C@@H](C)CC
ΔS (Calmodulin-1, Ca2+-bound N-lobe (CALM1, Homo sapiens, UniProt P0DP23); binding, isothermal titration calorimetry; pH 7.4, 15 °C, N-lobe, CaV2.1 IQ domain, together with: Ca2+): 19.7 ± 0.9 cal/mol/K

Cc1cccc(N2CC(C(=O)O)CC2=O)c1 (centres unmarked)
log fold enrichment (SPRY domain-containing SOCS box protein 2, SPRY domain (Homo sapiens, UniProt Q99619); binding, affinity selection mass spectrometry; reference: other proteins in batch): 0.152

NC(=O)[C@@H]1CN(C(=O)c2cc3cccn3cn2)C[C@H]1c1ccccc1
binding (WD repeat-containing protein 91, WD40 domain, residues 392–747 (Homo sapiens, UniProt A4D1P6); SPR; 45 µM): -19% and -6%

N#Cc1ccc2[nH]cc(CCCCN3CCN(c4ccc5oc(C(N)=O)cc5c4)CC3)c2c1
Hill coefficient (SLC6A4 (Homo sapiens, UniProt P31645, F556A); [3H]5-HT uptake, inhibitor; COS-7): 1.23 ± 0.16

O=c1nc(SCc2cc(F)cc(C(F)(F)F)c2)nc(SCc2ccc3sccc3c2)[nH]1
ATP hydrolysis rate (TOP2A (Homo sapiens, UniProt P11388); ATPase activity; 15.6 µM, together with: ATP 2 mM): 0.757 µM/min and 0.954 µM/min

Nc1ncnc2c1ncn2[C@@H]1O[C@H](COP(=O)(O)CP(=O)(O)OP(=O)(O)O)[C@@H](O)[C@H]1O
calcium influx (P2X purinoceptor 1 (P2RX1, Homo sapiens, UniProt P51575, E122A); calcium influx; 316 nM; reference: ionomycin response): 0.838% and 1% and 0.556% and 2.09%

[O-][S+]1CCCCS1 (centres unmarked)
SOD1 dimer fraction (SOD1 (Homo sapiens, UniProt P00441, G94A); LC-MS; human whole blood; 10 µM, 1 h, 37 °C): 1.02%

NC(=O)NCCC[C@H](N)C(=O)O
product formation (N-alpha-acetyltransferase 80 (NAA80, Homo sapiens, UniProt Q93015); substrate, DTNB; 2 mM, 30 min, 37 °C, together with: acetyl-CoA 500 µM): -0.48 µM

CO/N=C(\C(=O)N[C@@H]1C(=O)N2C(C(=O)O)=C(COC(C)=O)CS[C@H]12)c1csc(N)n1
inhibition (Genome polyprotein NS3 helicase domain; DNA binding, inhibitor; hepatitis C virus; 100 µM, together with: Cy5-dT15 DNA): 6%

CC(=O)c1cccc(OCc2cn(-c3ccc(C(=O)N4CCC(C#N)CC4)cc3)nn2)c1
binding (WD repeat-containing protein 91, residues 392–747 (Homo sapiens, UniProt A4D1P6); SPR dose-response titration; concentration not given, 1:1 binding model): 93% and 99%

N[C@H](C(=O)O)[C@H]1C[C@@H]1C(=O)O
inhibition (Genome polyprotein NS3 helicase domain; DNA binding, inhibitor; hepatitis C virus; 100 µM, together with: Cy5-dT15 DNA): 2%

Nc1ccccc1C(=O)/C=C/c1cccc([N+](=O)[O-])c1
conformation (Bax inhibitor 1 (TMBIM6, Homo sapiens, UniProt P55061); protein conformation): no effect

A few entries again:
O=C(COP(=O)(O)O)[C@@H](O)[C@H](O)[C@H](O)COP(=O)(O)O
thermal stability ratio (Crk-like protein (Homo sapiens, UniProt P46109); thermal proteome profiling; HepG2 cell lysate; 57 over 37 °C; reference: compound over control): 0.526

CC(=O)N[C@H]1[C@H]([C@H](O)[C@H](O)CO)OC(C(=O)O)=C[C@@H]1O
inhibition (Genome polyprotein NS3 helicase domain; DNA binding, inhibitor; hepatitis C virus; 100 µM, together with: Cy5-dT15 DNA): 2%
